Experimental data gathered from unrelated publications.
Numbered parts are unrelated; each lists some results of a single study.

Block 1
Target: Prothrombin, mature alpha-thrombin (F2, Homo sapiens, UniProt P00734)
Technique: aptamer microarray, sandwich
Molecule type: DNA with 2'F-ANA
Sample: in vitro
Tested at: 200 nM
Setting: whole 15-mer aptamer, many near background
Together with: Cy3 exosite-II aptamer, 400 nM
Direction: higher = stronger binding
Sequence: GGTTGGTGTGGTTGG
Modification	mean fluorescence intensity [a.u.]
2'F-ANA at 2 3 4 5 6 7 9 10 11 12 13 14 15	73.5
2'F-ANA at 3 5 6 7 8 10 12 13 15	55.3
2'F-ANA at 1 6 7 8 9 10 11 12 14 15	78.9
2'F-ANA at 2 6 13 14	149
2'F-ANA at 2 4 7 8 10 15	99.6
2'F-ANA at 1 3 4 12	487
2'F-ANA at 2 6 8 10 11 12 13 14 15	76
2'F-ANA at 5 6 7 9 10 11 12 15	79.9
2'F-ANA at 1 3 5 6 10 11 12 13 15	52.9
2'F-ANA at 1 2 3 7 8 11 13 15	219
2'F-ANA at 1 2 6 7 12 13 14 15	63.1
2'F-ANA at 1 2 3 4 6 7 11 13 15	95.2
2'F-ANA at 3 5 7 11 13 14	53.6
2'F-ANA at 1 2 3 5 6 7 8 12 13 14	50.2
2'F-ANA at 2 8 11 15	380
2'F-ANA at 2 4 6 8 11 13	183
2'F-ANA at 1 2 4 6 8 10 12 13 14 15	48

Block 2
Target: Ras GTPase-activating protein-binding protein 1, C-terminal RGG region (G3BP1, Homo sapiens, UniProt Q13283)
Sequence of UniProt Q13283 (whole entry, looked up): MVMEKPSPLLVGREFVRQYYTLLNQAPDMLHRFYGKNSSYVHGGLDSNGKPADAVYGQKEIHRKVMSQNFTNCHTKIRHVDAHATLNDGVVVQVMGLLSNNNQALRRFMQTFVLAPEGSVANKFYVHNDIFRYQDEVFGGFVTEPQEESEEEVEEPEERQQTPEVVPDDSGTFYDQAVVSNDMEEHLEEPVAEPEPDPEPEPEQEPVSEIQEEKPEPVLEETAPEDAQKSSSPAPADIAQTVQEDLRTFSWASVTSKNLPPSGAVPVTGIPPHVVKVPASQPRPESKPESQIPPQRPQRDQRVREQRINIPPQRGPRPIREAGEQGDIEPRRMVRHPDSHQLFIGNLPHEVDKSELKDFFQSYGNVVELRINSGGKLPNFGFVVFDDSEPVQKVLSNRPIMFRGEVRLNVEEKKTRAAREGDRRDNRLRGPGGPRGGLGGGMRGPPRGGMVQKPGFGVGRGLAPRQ
Technique: RNA Bind-n-Seq
Molecule type: RNA
Sample: in vitro
Tested at: 1 µM
Setting: whole 134-nt RNA, ends assumed
Together with: 150 mM KCl
Baseline: input library
Direction: higher = stronger binding
Sequence	log2 enrichment
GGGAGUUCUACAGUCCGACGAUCACCAUGCAGGUGGGCAUCUUUGGGAAGUGGGGCAAAAGGGGGAUAGGGAGGGGGGUAACACUUUGGGAACAGGUGGUCCCAGGUCGUUUCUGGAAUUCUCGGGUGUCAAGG	-1.06
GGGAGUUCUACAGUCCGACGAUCCACAGACAACACGCACCCACACAGACACAGAGGGAAGGGGUUGGGAGGGGGACAGGGUGCACAGCAGGGCGGGGUAGGACCCCAGCCCCUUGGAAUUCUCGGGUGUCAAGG	-0.592
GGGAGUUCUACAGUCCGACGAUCUGGGAGGUGGAUUUUGUUUAUUUUUUUAGCUCAUUUCCAGGGGCGGGAAUUUUUUUUUAAUAUGUGUCAUGAAUAAAGUUGUUUUUGAAAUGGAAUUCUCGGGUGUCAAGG	2.37
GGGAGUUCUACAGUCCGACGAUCAAGUCCUGUGCUACACAUCGUAUGUACCGAAUCGGGGAAAGGGGUUUGGGGAGGGGAAAGUAUUAUGUUACGCCGUUCGGAUCUGCACUUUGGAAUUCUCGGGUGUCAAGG	3.62
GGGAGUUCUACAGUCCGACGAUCGUCCUGUGCUACACAUCGUAUGUACCGAAUCGGGGAAAAAGGGGAAAAAGGAAAAAGGGAAAGUAUUAUGUUACGCCGUUCGGAUCUGCAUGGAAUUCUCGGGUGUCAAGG	-1.35
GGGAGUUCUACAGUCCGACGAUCUCAAGUCCUGUGCUACACAUCGUAUGUACCGAAUCGGGCCCGGCCCGGCCCGGGAAAGUAUUAUGUUACGCCGUUCGGAUCUGCACUUCCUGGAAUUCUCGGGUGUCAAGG	-1.54
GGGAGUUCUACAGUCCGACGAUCCACAGACAACACGCACCCACACAGACACAGAGGGAAGGGGUUGGGAUGGGGACAGGGUGCACAGCAGGGCGGGGUAGGACCCCAGCCCCAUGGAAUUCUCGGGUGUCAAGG	-0.919
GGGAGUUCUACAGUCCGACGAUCAGUCCUGUGCUACACAUCGUAUGUACCGAAUCGGGUUUUUGGGAGGGAAAAAAAGGGAAAGUAUUAUGUUACGCCGUUCGGAUCUGCACUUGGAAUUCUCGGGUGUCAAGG	-0.196
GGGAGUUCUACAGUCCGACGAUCUCCUGUGCUACACAUCGUAUGUACCGAAUCGGGGAAAAAAAGGGGAAAAAGGGGAGGGGAAAGUAUUAUGUUACGCCGUUCGGAUCUGCAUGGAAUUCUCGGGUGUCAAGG	1.85

Block 3
Target: Hepatocyte nuclear factor 3-alpha (Foxa1, Mus musculus, UniProt P35582, residues 1-468, full length assumed)
Technique: EMSA with sequencing
Molecule type: double-stranded DNA, one strand shown
Sample: in vitro
Tested at: 10 and 20 nM
Setting: whole designed probe, mean of two concentrations, ends assumed
Baseline: negative control set to 0
Direction: higher = stronger binding
Construct (chain): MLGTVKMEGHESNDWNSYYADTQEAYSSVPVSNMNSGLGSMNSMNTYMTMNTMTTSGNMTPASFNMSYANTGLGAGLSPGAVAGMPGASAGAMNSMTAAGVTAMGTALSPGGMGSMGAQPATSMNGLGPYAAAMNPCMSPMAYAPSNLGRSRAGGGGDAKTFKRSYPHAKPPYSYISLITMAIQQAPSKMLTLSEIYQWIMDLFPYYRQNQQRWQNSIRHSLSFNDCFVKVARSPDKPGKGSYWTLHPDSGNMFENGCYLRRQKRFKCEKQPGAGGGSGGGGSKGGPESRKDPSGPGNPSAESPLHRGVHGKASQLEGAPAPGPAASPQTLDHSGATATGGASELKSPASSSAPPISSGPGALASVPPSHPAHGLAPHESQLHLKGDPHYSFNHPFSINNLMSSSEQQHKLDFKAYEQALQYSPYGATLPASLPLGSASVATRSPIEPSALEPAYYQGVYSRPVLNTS
Sequence	normalised bound fraction [ratio]
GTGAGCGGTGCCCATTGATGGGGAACATCTTCCCCCTCTTCCTTGCCCCACCAGCTCACCTTCCCGGGTATCTGCAAATAAGCAAAGTAAACAAAGCCGGCATTCGTTAACCCTCTTCTGGCGCAAACTGCTGTTTACTTTGGATGAATCATGGTCCTTTGGCGACGCCAGGCTCCGGGAGAGCAAAGCACCGTGTCAGGGCCATGATCCGGGGTGGCCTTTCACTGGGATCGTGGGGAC	0.519
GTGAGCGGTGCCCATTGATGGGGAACATCTTCCCCCTCTTCCTTGCCCCACCAGCTCACCTTCCCGGGTTATTTGCACAAAGGAAAATAAATAAAGCCGGCATTCGTTAACCCTCTTCTGGCGCAAACTGCTGTTTGCTCTGGATCTAACATGGTCCTTTGGCGAGGCGTGGCTCCGGGAGAGCAAAGCACCGTGTCAGGGCCATGATCCGGGCTCGCCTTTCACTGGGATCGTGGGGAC	0.368
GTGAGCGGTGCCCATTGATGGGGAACATCTTCCCCCTCTTCCTTGCCCCACCAGCTCACCTACGGGGGTTATTTGCACAAAGGAAAATAAATAAAGCCGGCATTCGTTAACCCTCTTCTGGCGCAAACTGCTGTTTGCTCTGGATCTAACATGGTCCTTTGGCGAGGCGTGGCTCCGGGAGAGCAAAGCACCGTGTCAGGGCCATGATCCGGGCTCGCCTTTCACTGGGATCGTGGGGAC	0.381
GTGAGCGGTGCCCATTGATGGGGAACAAAGAAAAAAAAAAAAGAAATACCGAAGTGGTTCCCCAAGGCACCAATTTAAAGTGTATATGTGCAGTGCAGGGTTACTGGACCAAGGCACAGTGTAAACAGCGAAATTTTATTTTTTGTTTTCTTTTTCCTAAGATGTTCCTTACTCCCAGTTACATAAAAATGTGTATTACAAGCAAACAAAAATTAACAGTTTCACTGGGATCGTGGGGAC	0.254
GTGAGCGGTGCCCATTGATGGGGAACTGTTTTTAAATGGAGTTTAAAATAAACTGTTAAGAGCTCTGTTAAACTCCGGGCTTAGAGTATATTCTATTTTGGGATATTATTACTCAGTATGTAAACAAGCTGTACCAAGATAAACTGTACAAGATTTCATAATTCCTTGCTGCTCAAGAATAGCAGCTGGTTGCTGCAAAAATTTCAGTTTCCCCCCTATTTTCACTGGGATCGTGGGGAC	0.389

Block 4
Target: Histone acetyltransferase KAT6A, both winged helices, GST fusion (KAT6A, Homo sapiens, UniProt Q92794, residues 1-181)
Technique: protein binding microarray
Molecule type: double-stranded DNA, one strand shown
Sample: in vitro
Tested at: not given
Setting: 8-mer, flanks averaged, mean of 2 arrays, mostly near background
Baseline: not given
Direction: higher = stronger binding
Residues (chain): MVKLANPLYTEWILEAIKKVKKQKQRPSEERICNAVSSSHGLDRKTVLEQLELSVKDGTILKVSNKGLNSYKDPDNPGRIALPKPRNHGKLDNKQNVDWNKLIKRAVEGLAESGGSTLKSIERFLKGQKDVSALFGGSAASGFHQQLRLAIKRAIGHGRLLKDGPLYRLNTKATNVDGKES
Sequence	E-score
AGATTCCA	-0.062
GTAACTGA	-0.0197
GATAGTGC	0.0117
CTTCATGA	0.0605
AAACCGAG	0.129
GTAATTAA	-0.0261
ATGTTGGC	0.141
ATTGAAAG	-0.087
CACGCACC	0.169
AAACAGCT	-0.05
ATGGCTCA	-0.258
ACCCAATG	-0.0561
CGACAATC	-0.0903
AAACGGTA	0.217
ATGAAGTC	-0.0864
AATAAGAA	-0.074
GCATACGA	-0.102
ATCTTGAA	-0.0316
GGGGATCA	-0.179
ATCATCCC	-0.0728
TCTCGAAA	0.0163
ACTCAAGC	-0.0821
AACAATTA	0.0691
AATGATAT	-0.007

A few entries again (block 1):
Modification	mean fluorescence intensity [a.u.]
2'F-ANA at 1 2 6 7 12 13 14 15	63.1
2'F-ANA at 2 6 8 10 11 12 13 14 15	76
2'F-ANA at 3 5 7 11 13 14	53.6
2'F-ANA at 1 2 4 6 8 10 12 13 14 15	48
2'F-ANA at 1 3 5 6 10 11 12 13 15	52.9
2'F-ANA at 2 6 13 14	149
2'F-ANA at 1 6 7 8 9 10 11 12 14 15	78.9
2'F-ANA at 2 8 11 15	380
